Results from different studies.
Numbered parts are unrelated; each lists some results of a single study. Changes are numbered by the printed parent chain.

Series 1
Target: Fragile X messenger ribonucleoprotein 1, C-terminal low-complexity region (Fmr1, Mus musculus, UniProt P35922)
Technique: RNA Bind-n-Seq
Form: RNA
Medium: in vitro
Tested at: 200 nM
Setting: whole 134-nt RNA, ends assumed
With: 150 mM LiCl
Baseline: input library
Reading: higher = stronger binding
Endpoint: log2 enrichment
Each molecule: 7-deaza-guanosine replaces G
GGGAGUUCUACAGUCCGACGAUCACCAUGCAGGUGGGCAUCUUUGGGAAGUGGGGCAAGGGGGGGAUAGGGAGGGGGGUAACACUUUGGGAACAGGUGGUCCCAAAACGUUUCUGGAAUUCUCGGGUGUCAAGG: 1.12
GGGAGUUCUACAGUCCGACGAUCAGUCCUGUGCUACACAUCGUAUGUACCGAAUCAAAUUUAAACCCCCCCAAAUUUAAAAAAGUAUUAUGUUACGCCGUUCGGAUCUGCACUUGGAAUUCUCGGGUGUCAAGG: 0.886
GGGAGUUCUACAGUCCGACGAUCCAAGUCCUGUGCUACACAUCGUAUGUACCGAAUCGGAAAGGGGAAAGGGAAAGGGGAAAGUAUUAUGUUACGCCGUUCGGAUCUGCACUUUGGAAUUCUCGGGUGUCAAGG: -0.479
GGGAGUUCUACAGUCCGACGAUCUCAAGUCCUGUGCUACACAUCGUAUGUACCGAAUCGGAAGGGAAGGGGAAGGGGAAAGUAUUAUGUUACGCCGUUCGGAUCUGCACUUCCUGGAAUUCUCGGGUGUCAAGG: -0.508
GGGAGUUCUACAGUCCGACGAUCUCCUGUGCUACACAUCGUAUGUACCGAAUCGGGCCCCCCGGGCCCCCCGGCCCCCCGGGGAAAGUAUUAUGUUACGCCGUUCGGAUCUGCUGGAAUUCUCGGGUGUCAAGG: -0.561
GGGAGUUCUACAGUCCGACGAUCUGGCCCUGGUGGCAUGCGGGGAGGAAGAGGUGGCCUCAUGGAUCGUGGUGGUGCCGGUGGAAUGUUCAGAGGUGGCCGUGGUGGAGACAGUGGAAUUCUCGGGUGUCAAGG: -0.154
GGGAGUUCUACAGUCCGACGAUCUCCCGGGCGCUAGCCCACCUCCCACCCGCCUCUUGGCUCCUCUCCUCUAGGCCGUCGCUUUCGGGUUCUCUCAUCGCUUCGUCGUUCGCCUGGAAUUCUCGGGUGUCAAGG: 1.61
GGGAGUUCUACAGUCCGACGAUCACCAUGCAGGUGGGCAUCUUUGGGAAGUGGGGCAAGGGGGGGAUAGGGAGGGGGGUAACACUUUGGGAACAGGUGGUUCCAGGUCGUUUCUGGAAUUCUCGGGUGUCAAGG: 1.32

Series 2
Target: ABI1, truncated, D143A, DHFR fusion (Arabidopsis thaliana)
Technique: DHFR PCA, deep sequencing
Medium: yeast
Setting: methotrexate growth selection, single substitutions
With: (+)-ABA 4.8 µM
Baseline: wild-type fitted maximum
Reading: higher = stronger binding
Endpoint: relative binding score
Parent: PYL1, truncated, DHFR fusion (Arabidopsis thaliana); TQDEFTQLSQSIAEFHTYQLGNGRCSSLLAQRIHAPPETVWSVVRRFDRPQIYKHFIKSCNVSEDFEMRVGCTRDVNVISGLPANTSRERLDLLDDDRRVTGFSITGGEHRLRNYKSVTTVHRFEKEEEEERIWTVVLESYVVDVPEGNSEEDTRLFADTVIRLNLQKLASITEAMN; partner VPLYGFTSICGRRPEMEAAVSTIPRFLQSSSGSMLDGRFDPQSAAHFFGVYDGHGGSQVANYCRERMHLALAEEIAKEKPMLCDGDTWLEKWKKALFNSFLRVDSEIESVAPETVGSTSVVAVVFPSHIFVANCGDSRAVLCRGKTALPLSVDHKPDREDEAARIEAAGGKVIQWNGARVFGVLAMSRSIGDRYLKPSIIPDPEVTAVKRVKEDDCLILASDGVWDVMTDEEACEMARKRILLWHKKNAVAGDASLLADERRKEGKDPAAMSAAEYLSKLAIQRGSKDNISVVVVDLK
G71S: 9.16%
S42R: 62.9%
Q10T: 73.8%
T86I: 42.3%
Q31T: 4.99%
E129C: 72.1%
S80M: 10.4%
F47R: 1.54%
M68T: 42.6%
L166K: -11.1%
Y18I: 21.2%
S26E: 3.53%
H122C: 1.79%
V118P: -3.38%
S150R: 10.2%
R69W: 13.7%
I79T: 53.7%
Y141A: 13.6%
R49F: 20.8%

Series 3
Target: RNA binding protein fox-1 homolog 2, RRM domain, GST-SBP tag (RBFOX2, Homo sapiens, UniProt O43251-10, residues 100-194)
Technique: RNA Bind-n-Seq
Form: RNA
Medium: in vitro
Tested at: 365 nM
Setting: natural RNA segment, single round, ends assumed
Baseline: no-protein control
Reading: higher = stronger binding
Endpoint: RBNS enrichment (R)
Residues (chain): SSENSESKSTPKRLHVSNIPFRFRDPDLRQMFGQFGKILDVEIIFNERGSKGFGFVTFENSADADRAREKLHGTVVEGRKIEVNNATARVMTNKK
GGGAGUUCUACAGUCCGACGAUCUGUCAGCAGGGGGCCUGGUGGGAGGAGCGACUGCCCUGCCCAAAUGAACUGCCACAGCAGGGACAGCUGGACCGCAGAGUUUAUUUUUGUAUUUCUACUGGGCCUGCACAUGGAAUUCUCGGGUGCCAA: 0.417
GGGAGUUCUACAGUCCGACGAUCGUUGUGUGCAGCUUUAGCGGCAUCAGGACAGCUUCCAGCUUGCAAUGAUUGCUGCUGACAGGAACACCUGGAUCUCAAGAGCUUUUUAUGACAGGUGGACAUCUGUGUCAUGGAAUUCUCGGGUGCCAA: 0.328
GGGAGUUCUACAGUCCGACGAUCCUUGAAUAGCUCUAACUCCAAACCUCUGUCCACACCUCCAGAGCACCAAGUCCAGAUUUGUGUGUAAGCAGCUGGGUGCCUGGGGCCUCUCGUGCACACUGGAUUGGUUUUGGAAUUCUCGGGUGCCAA: 0.645
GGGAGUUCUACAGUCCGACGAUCGGCAUCAGAGGGAAGGGAGGCUGGGGCUGCAGGGCAGUGAAACCCACGCAGCCUAGGCCAGAGCACUUUACUCCAGGCAGGGCCCCUGCCCCUGUUGGCCACAGCUUAUGUGGAAUUCUCGGGUGCCAA: 0.243
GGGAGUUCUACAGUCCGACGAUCAAAAUCACUAUUAAUUUCUGAAUCCUUUGCCUGUGGGUAGGAAGAGAAUGGCUGCCAGUGGCUGAUGGGUCCCGGUGAUGGGAAGGGUAUCAGGUUGCUGGGGAGUUUCCUGGAAUUCUCGGGUGCCAA: 3
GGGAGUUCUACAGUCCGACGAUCUUGCCCCUCUGAGAAGCAUGAAUGAGCUCACAUUAGUACUGAGAAGUUUGAAGACCAAGAAAUCCUGUAUUUCCUACUCUAGGUGAGACAAUGUGAGAGGACAAAGUAUGUGGAAUUCUCGGGUGCCAA: 14.6
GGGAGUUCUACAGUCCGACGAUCCUGUUUAUAUUUUUGGAAUAUUUGUAUUACAAUUGUUAAUAAAGGCUGGUUUAAAAACCUGUGCAGGACUGGGAGCUGCUUUUGCUUUCCUUCCCUUCCACUGACCUGACUGGAAUUCUCGGGUGCCAA: 0.407
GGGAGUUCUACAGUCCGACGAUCUUGUUAUGUUUUUAUUUGGGCAAGUUUAAUCAUGGAAAACUCAAAAAGAAGGGGGGAAAUGGUCAGUUUAAGCCAAAAGAAACUUUCUAAACAAUGUAUAGGUACACAGCUGGAAUUCUCGGGUGCCAA: 0.493

Series 4
Target: CCNB2, cyclin fold, Cln2 fusion (human)
Technique: yeast growth competition, sequencing
Medium: yeast
Setting: weak parent motif
Baseline: not given
Reading: higher = stronger binding
Endpoint: normalised enrichment score
Parent: RBL1 docking peptide (human); GSAKRRLFGEDPP
D11C: 0.447
L7G: 0.162
R5T: -0.429
P12M: 0.066
F8W: -0.267
R5I: -0.283
R6H: -0.143
G9H: 0.0539
G1R: 0.363
A3H: 0.492
P13H: 0.755
S2P: 0.138
P12W: 0.425
E10Y: -0.154
R6W: 0.0797
K4A: -0.0772
R5A L7A: -0.185
E10S: 0.821
K4P: -0.122

Some of these lines once more (series 2):
S80M: 10.4%
F47R: 1.54%
M68T: 42.6%
L166K: -11.1%
Y18I: 21.2%
S26E: 3.53%
